{"data": "Experimental data pooled from the literature", "organism": "Candida albicans", "note": "Protocols differ between the studies behind these lines."}
{"Compound": "CC[C@H](C)[C@H](NC(=O)CN)C(=O)NCC(=O)N[C@@H](C)C(=O)N[C@H](C(=O)N[C@@H](CC(C)C)C(=O)N[C@@H](CCCCN)C(=O)N[C@H](C(=O)N[C@@H](CC(C)C)C(=O)N[C@H](C(=O)N[C@H](C(=O)NCC(=O)N[C@@H](CC(C)C)C(=O)N1CCC[C@H]1C(=O)N[C@@H](C)C(=O)N[C@@H](CC(C)C)C(=O)N[C@H](C(=O)N[C@@H](CO)C(=O)N[C@@H](Cc1c[nH]c2ccccc12)C(=O)N[C@H](C(=O)N[C@@H](CCCCN)C(=O)N[C@@H](CCCNC(=N)N)C(=O)N[C@@H](CCCCN)C(=O)N[C@@H](CCCNC(=N)N)C(=O)N[C@@H](CCC(N)=O)C(=O)N[C@@H](CCC(N)=O)C(N)=O)[C@@H](C)CC)[C@@H](C)CC)[C@@H](C)O)[C@@H](C)O)C(C)C)C(C)C", "assay": "broth microdilution", "system": "17546, RPMI-1640", "setting": "48 h, 30 °C", "MIC": "4 µM"}
{"Compound": "CCCCCCC[C@@H]1CC(=O)N[C@H](CC(C)C)C(=O)N[C@@H](CO)C(=O)N[C@@H]([C@@H](C)O)C(=O)N[C@H](Cc2ccc(O)cc2)C(=O)N[C@@H]([C@@H](C)CC)C(=O)O1", "assay": "fungal growth, XTT", "system": "SC5314", "MIC": "> 100 µM"}
{"Compound": "CC[C@H](C)[C@H](NC(=O)[C@H](C)NC(=O)[C@H](CCCCN)NC(=O)[C@@H](N)CCCNC(=N)N)C(=O)N[C@@H](CCCNC(=N)N)C(=O)N[C@@H](Cc1c[nH]c2ccccc12)C(=O)N[C@@H](Cc1c[nH]c2ccccc12)C(N)=O", "MIC": "64 µg/mL"}
{"Compound": "OC(Cn1cncn1)(Cn1cncn1)c1ccc(F)cc1F", "system": "2.209", "setting": "after 30 generations serial passaging", "MIC": "512 µM"}
{"Compound": "OC(Cn1cncn1)(Cn1cncn1)c1ccc(F)cc1F", "system": "ATCC 36232", "setting": "50% inhibition", "MIC": "2 µg/mL"}
{"Compound": "N=C(N)NCCC[C@H](NC(=O)[C@H](Cc1c[nH]c2ccccc12)NC(=O)[C@H](CCCNC(=N)N)NC(=O)[C@H](Cc1c[nH]c2ccccc12)NC(=O)[C@H](Cc1c[nH]c2ccccc12)NC(=O)[C@H](Cc1c[nH]c2ccccc12)NC(=O)[C@H](CCCNC(=N)N)NC(=O)[C@H](Cc1c[nH]c2ccccc12)NC(=O)[C@@H](N)CCCNC(=N)N)C(N)=O", "assay": "broth microdilution", "system": "CGMCC 2.209, RPMI 1640-MOPS", "setting": "48 h, 30 °C, added: CaCl2 2 mM", "MIC": "32 µM"}
{"Compound": "C#Cc1ccc(C=NNC(=O)c2ccc(COC)cc2)c(O)c1", "system": "A39", "setting": "48 h", "MIC": "4 µg/mL"}
{"Compound": "CC[C@H](C)[C@H](NC(=O)CN)C(=O)N[C@@H](CC(C)C)C(=O)N[C@@H](C)C(=O)N[C@@H](C)C(=O)N[C@H](C(=O)N[C@@H](CCCCN)C(=O)N[C@@H](C)C(=O)N[C@H](C(=O)N[C@@H](C)C(=O)N[C@@H](CCCCN)C(=O)N[C@@H](C)C(=O)N[C@@H](C)C(=O)NCC(N)=O)[C@@H](C)CC)[C@@H](C)CC", "system": "ATCC 90029, RPMI MOPS", "setting": "24 h, pH 7.0, 33 °C", "MIC": "128 µg/mL"}
{"Compound": "C[C@H](NC(=O)[C@H](CCCNC(=N)N)NC(=O)[C@H](Cc1c[nH]c2ccccc12)NC(=O)[C@H](CCCNC(=N)N)NC(=O)[C@H](Cc1c[nH]c2ccccc12)NC(=O)[C@H](Cc1c[nH]c2ccccc12)NC(=O)[C@H](Cc1c[nH]c2ccccc12)NC(=O)[C@H](CCCNC(=N)N)NC(=O)[C@H](Cc1c[nH]c2ccccc12)NC(=O)[C@H](CCCNC(=N)N)NC(=O)CN)C(N)=O", "assay": "broth microdilution", "system": "56452, RPMI 1640-MOPS", "setting": "48 h, 30 °C", "MIC": "8 µM"}
{"Compound": "CC[C@H](C)[C@H](NC(=O)CN)C(=O)NCC(=O)N[C@@H](C)C(=O)N[C@H](C(=O)N[C@@H](CC(C)C)C(=O)N[C@@H](CCCCN)C(=O)N[C@H](C(=O)N[C@@H](CC(C)C)C(=O)N[C@H](C(=O)N[C@H](C(=O)NCC(=O)N[C@@H](CC(C)C)C(=O)N1CCC[C@H]1C(=O)N[C@@H](C)C(=O)N[C@@H](CC(C)C)C(=O)N[C@H](C(=O)N[C@@H](CO)C(=O)N[C@@H](Cc1c[nH]c2ccccc12)C(=O)N[C@H](C(=O)N[C@@H](CCCCN)C(=O)N[C@@H](CCCNC(=N)N)C(=O)N[C@@H](CCCCN)C(=O)N[C@@H](CCCNC(=N)N)C(=O)N[C@@H](CCC(N)=O)C(=O)N[C@@H](CCC(N)=O)C(N)=O)[C@@H](C)CC)[C@@H](C)CC)[C@@H](C)O)[C@@H](C)O)C(C)C)C(C)C", "system": "CGMCC 2.209, RPMI 1640 MOPS-buffered", "setting": "48 h, 37 °C, tested up to 128 µM", "MIC": "4 µM"}
{"Compound": "CC(C)C[C@H](NC(=O)[C@H](CCCNC(=N)N)NC(=O)[C@H](Cc1c[nH]c2ccccc12)NC(=O)[C@H](CCCNC(=N)N)NC(=O)[C@H](Cc1c[nH]c2ccccc12)NC(=O)[C@H](Cc1c[nH]c2ccccc12)NC(=O)[C@H](Cc1c[nH]c2ccccc12)NC(=O)[C@H](CCCNC(=N)N)NC(=O)[C@H](Cc1c[nH]c2ccccc12)NC(=O)[C@H](CCCNC(=N)N)NC(=O)CN)C(N)=O", "assay": "broth microdilution", "system": "SP3903, RPMI 1640-MOPS", "setting": "48 h, 30 °C", "MIC": "32 µM"}
{"Compound": "Cl.O[C@]12C=C(c3nccc4c3[nH]c3ccccc34)[C@@H]3CCN(CCCC/C=C\\CC1)C[C@@]31C[C@@H]3/C=C\\CCCCN3[C@H]12", "system": "ATCC 90028", "MIC": "20 µg/mL"}
{"Compound": "CC[C@H](C)[C@H](NC(=O)CN)C(=O)NCC(=O)N[C@@H](C)C(=O)N[C@H](C(=O)N[C@@H](CC(C)C)C(=O)N[C@@H](CCCCN)C(=O)N[C@H](C(=O)N[C@@H](CC(C)C)C(=O)N[C@H](C(=O)N[C@H](C(=O)NCC(=O)N[C@@H](CC(C)C)C(=O)N1CCC[C@H]1C(=O)N[C@@H](C)C(=O)N[C@@H](CC(C)C)C(=O)N[C@H](C(=O)N[C@@H](CO)C(=O)N[C@@H](Cc1c[nH]c2ccccc12)C(=O)N[C@H](C(=O)N[C@@H](CCCCN)C(=O)N[C@@H](CCCNC(=N)N)C(=O)N[C@@H](CCCCN)C(=O)N[C@@H](CCCNC(=N)N)C(=O)N[C@@H](CCC(N)=O)C(=O)N[C@@H](CCC(N)=O)C(N)=O)[C@@H](C)CC)[C@@H](C)CC)[C@@H](C)O)[C@@H](C)O)C(C)C)C(C)C", "assay": "broth microdilution", "system": "56452, RPMI 1640-MOPS", "setting": "48 h, 30 °C", "MIC": "4 µM"}
{"Compound": "C#Cc1ccc(C=NNC(=O)c2ccc(Br)cc2Br)c(O)c1", "system": "A39", "setting": "48 h", "MIC": "1 µg/mL"}
{"Compound": "N=C(N)NCCC[C@H](NC(=O)[C@H](Cc1c[nH]c2ccccc12)NC(=O)[C@H](CCCNC(=N)N)NC(=O)[C@H](Cc1c[nH]c2ccccc12)NC(=O)[C@H](Cc1c[nH]c2ccccc12)NC(=O)[C@H](Cc1c[nH]c2ccccc12)NC(=O)[C@H](CCCNC(=N)N)NC(=O)[C@H](Cc1c[nH]c2ccccc12)NC(=O)[C@@H](N)CCCNC(=N)N)C(=O)N[C@@H](Cc1ccccc1)C(N)=O", "assay": "broth microdilution", "system": "CGMCC 2.209, RPMI 1640-MOPS", "setting": "48 h, 30 °C, added: NaCl 150 mM", "MIC": "32 µM"}
{"Compound": "CC[C@H](C)[C@H](NC(=O)[C@H](Cc1c[nH]c2ccccc12)NC(=O)[C@@H](N)CCCNC(=N)N)C(=O)N[C@@H](CCCNC(=N)N)C(=O)N1CCC[C@H]1C(=O)N[C@@H](CCSC)C(=O)N[C@@H](Cc1c[nH]c2ccccc12)C(N)=O", "MIC": "512 µg/mL"}
{"note": "For quick reference, copied from above:"}
{"Compound": "N=C(N)NCCC[C@H](NC(=O)[C@H](Cc1c[nH]c2ccccc12)NC(=O)[C@H](CCCNC(=N)N)NC(=O)[C@H](Cc1c[nH]c2ccccc12)NC(=O)[C@H](Cc1c[nH]c2ccccc12)NC(=O)[C@H](Cc1c[nH]c2ccccc12)NC(=O)[C@H](CCCNC(=N)N)NC(=O)[C@H](Cc1c[nH]c2ccccc12)NC(=O)[C@@H](N)CCCNC(=N)N)C(=O)N[C@@H](Cc1ccccc1)C(N)=O", "assay": "broth microdilution", "system": "CGMCC 2.209, RPMI 1640-MOPS", "setting": "48 h, 30 °C, added: NaCl 150 mM", "MIC": "32 µM"}
{"Compound": "CC[C@H](C)[C@H](NC(=O)CN)C(=O)N[C@@H](CC(C)C)C(=O)N[C@@H](C)C(=O)N[C@@H](C)C(=O)N[C@H](C(=O)N[C@@H](CCCCN)C(=O)N[C@@H](C)C(=O)N[C@H](C(=O)N[C@@H](C)C(=O)N[C@@H](CCCCN)C(=O)N[C@@H](C)C(=O)N[C@@H](C)C(=O)NCC(N)=O)[C@@H](C)CC)[C@@H](C)CC", "system": "ATCC 90029, RPMI MOPS", "setting": "24 h, pH 7.0, 33 °C", "MIC": "128 µg/mL"}
